# Published values from different studies.
# A part holds a random share of what one study measured. Substitutions count along the parent as printed.

# Series 1
# Target: Sal-like protein 4, full length isoform B (SALL4, Homo sapiens, UniProt Q9UJQ4-2, residues 1-616)
# Method: universal PBM
# Molecule type: double-stranded DNA, one strand shown
# Sample: in vitro
# Tested at: not given
# Setting: 8-mer, flanks averaged, mean of replicates
# Direction: higher = stronger binding
# Residues (chain): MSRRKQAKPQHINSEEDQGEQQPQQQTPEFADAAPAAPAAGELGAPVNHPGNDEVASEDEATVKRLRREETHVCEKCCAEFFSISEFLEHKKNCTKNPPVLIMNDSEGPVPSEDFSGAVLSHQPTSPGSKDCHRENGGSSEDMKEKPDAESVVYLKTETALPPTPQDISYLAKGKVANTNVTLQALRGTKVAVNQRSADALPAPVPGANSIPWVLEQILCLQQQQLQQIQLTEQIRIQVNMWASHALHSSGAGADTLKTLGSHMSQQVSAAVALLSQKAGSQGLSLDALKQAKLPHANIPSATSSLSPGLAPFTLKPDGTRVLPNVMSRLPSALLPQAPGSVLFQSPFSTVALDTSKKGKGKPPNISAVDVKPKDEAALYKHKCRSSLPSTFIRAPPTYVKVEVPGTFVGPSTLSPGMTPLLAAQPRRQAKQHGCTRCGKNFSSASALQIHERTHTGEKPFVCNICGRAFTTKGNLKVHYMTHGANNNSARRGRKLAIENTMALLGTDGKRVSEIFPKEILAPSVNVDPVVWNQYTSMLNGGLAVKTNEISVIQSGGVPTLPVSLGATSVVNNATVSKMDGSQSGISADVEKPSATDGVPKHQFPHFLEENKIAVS
Sequence,E-score
AGGAAACT,-0.0366
AAGCAGCA,-0.0818
ATGCTCGA,0.116
AAAAAAAG,0.19
AATAGTCC,-0.0732
CGCTTCGC,-0.155
CAGAAGAA,-0.0689
TACACCAA,0.0177
CCGTATGA,0.14
AACCAAGT,0.0629
ATGGGTTC,-0.191
CCGGCGCG,-0.273
ATAAAGCA,0.205
GGACTCTA,-0.0614
TAGAGATA,0.121
AGATCTTA,0.121
ACCTGGAT,-0.174
ATTGCTTC,0.159
AACAAGAT,0.169
AGAGTAGA,0.181
CCAGCATA,-0.00923

# Series 2
# Target: Ras GTPase-activating protein-binding protein 1, RRM domain (G3BP1, Homo sapiens, UniProt Q13283)
# UniProt Q13283, sequence (whole entry, looked up): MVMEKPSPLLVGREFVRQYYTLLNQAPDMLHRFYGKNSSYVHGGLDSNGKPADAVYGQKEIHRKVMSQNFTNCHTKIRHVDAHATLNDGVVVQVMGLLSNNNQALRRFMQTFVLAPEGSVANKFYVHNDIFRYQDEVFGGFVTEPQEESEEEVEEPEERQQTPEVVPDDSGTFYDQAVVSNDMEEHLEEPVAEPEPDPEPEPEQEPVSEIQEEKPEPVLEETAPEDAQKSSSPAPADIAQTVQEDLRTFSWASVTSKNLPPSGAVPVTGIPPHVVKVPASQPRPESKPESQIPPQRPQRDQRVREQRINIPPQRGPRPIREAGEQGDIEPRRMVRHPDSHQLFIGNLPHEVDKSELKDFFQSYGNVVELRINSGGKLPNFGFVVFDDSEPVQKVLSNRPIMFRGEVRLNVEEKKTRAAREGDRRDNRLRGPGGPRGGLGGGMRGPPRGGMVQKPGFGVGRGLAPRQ
# Method: RNA Bind-n-Seq
# Molecule type: RNA
# Sample: in vitro
# Tested at: 1 µM
# Setting: whole 134-nt RNA, ends assumed
# With: 150 mM KCl
# Relative to: input library
# Direction: higher = stronger binding
Sequence,log2 enrichment
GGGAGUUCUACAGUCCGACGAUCAGUCCUGUGCUACACAUCGUAUGUACCGAAUCGGAAAGGAAAAAAAGGAAAAAAAGGAAAGUAUUAUGUUACGCCGUUCGGAUCUGCACUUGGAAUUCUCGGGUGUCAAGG,0.0208
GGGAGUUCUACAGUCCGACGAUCUCAAGUCCUGUGCUACACAUCGUAUGUACCGAAUCGGCCGGGGCCGGGCCGGGGAAAGUAUUAUGUUACGCCGUUCGGAUCUGCACUUCCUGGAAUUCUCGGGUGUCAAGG,-0.774
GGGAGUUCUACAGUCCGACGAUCAGUCCUGUGCUACACAUCGUAUGUACCGAAUCGGGUUUUGGGUUUUGGGGUUUUGGGGAAAGUAUUAUGUUACGCCGUUCGGAUCUGCACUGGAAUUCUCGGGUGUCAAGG,0.44
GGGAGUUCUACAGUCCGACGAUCCUGUGCUACACAUCGUAUGUACCGAAUCGGGAAAAAAAGGGGAAAAAAAGGGAAAAAAAGGGAAAGUAUUAUGUUACGCCGUUCGGAUCUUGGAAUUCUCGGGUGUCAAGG,0.261
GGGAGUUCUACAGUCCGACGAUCUAACUUUAGAGGAGGAUCUGAUGGAUAUGGCAGUGGACGUGGAUUUGGGGAUGGCUAUAAUGGGUAUGGAGGAGGACCUGGAGGCGGCAAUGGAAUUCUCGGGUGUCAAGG,-0.356
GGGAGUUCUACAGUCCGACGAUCCCUGUGCUACACAUCGUAUGUACCGAAUCGUGUGUGUGUGUGUGUGUGUGUGUGUGUGUGUAAAGUAUUAUGUUACGCCGUUCGGAUCUGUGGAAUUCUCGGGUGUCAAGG,0.134
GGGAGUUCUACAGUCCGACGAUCUAACUUUAGAGGAGGAUCUGAUGGAUAUGGCAGUGGACGUGGAUUUGGGGAUGGCUAUAAUGGGUAUGGAGGAGGACCUCGAGGUGGCAAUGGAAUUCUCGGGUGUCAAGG,-0.475
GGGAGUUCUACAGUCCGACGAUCUGGGAGGUGGAUUUUGUUUAUUUUUUUAGCUCAUUUCCAGGGGUGGGAAUUUUUUUUUAAUAUGUGUCAUGGAUAAAGUUGUUUUUGAAAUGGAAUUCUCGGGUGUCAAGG,1.81
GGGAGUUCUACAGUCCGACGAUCUUUACAAAUAUGCCCAAGACUUCUUGGUGGCUAUUGCAGAGCCAGUGUGCCGACCAACCCAUGUGCAUGAGUACAAACUAACUGCCUACUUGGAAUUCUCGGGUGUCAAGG,0.0311

# Series 3
# Target: CCNB1, cyclin fold, Cln2 fusion (human)
# Method: yeast growth competition, sequencing
# Sample: yeast
# Setting: strong parent motif
# Relative to: not given
# Direction: higher = stronger binding
# Starting sequence: E2F1 docking peptide (human); PPVKRRLDLETDH; partner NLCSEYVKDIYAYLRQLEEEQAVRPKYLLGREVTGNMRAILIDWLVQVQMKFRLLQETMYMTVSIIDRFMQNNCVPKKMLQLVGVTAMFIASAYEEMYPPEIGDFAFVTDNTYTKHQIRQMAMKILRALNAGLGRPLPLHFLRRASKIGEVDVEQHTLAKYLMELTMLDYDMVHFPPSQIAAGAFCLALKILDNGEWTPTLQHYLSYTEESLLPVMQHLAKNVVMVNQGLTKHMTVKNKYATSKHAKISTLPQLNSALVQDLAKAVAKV
Variant,normalised enrichment score
PPVKRELDLETDH [R6E],0.883
PPVTRRLDLETDH [K4T],0.338
GPVKRRLDLETDH [P1G],1.29
PPVKRRLDLVTDH [E10V],0.629
PPVKRQLDLETDH [R6Q],1.03
PPVKRRLDLETDI [H13I],1.8
PPVKRRLDLTTDH [E10T],0.884
PPVKRRLDLLTDH [E10L],0.87
PPMKRRLDLETDH [V3M],0.224
PPVKRRPDLETDH [L7P],0.627
PPVKRRLDLETFH [D12F],2.02
PPVKRRLDLETYH [D12Y],2.09
PPDKRRLDLETDH [V3D],0.0677

# Series 4
# Target: ABI1, truncated, D143A, DHFR fusion (Arabidopsis thaliana)
# Method: DHFR PCA, deep sequencing
# Sample: yeast
# Setting: methotrexate growth selection, single substitutions
# With: (+)-ABA 0.0091 µM
# Relative to: wild-type fitted maximum
# Direction: higher = stronger binding
# Starting sequence: PYL1, truncated, DHFR fusion (Arabidopsis thaliana); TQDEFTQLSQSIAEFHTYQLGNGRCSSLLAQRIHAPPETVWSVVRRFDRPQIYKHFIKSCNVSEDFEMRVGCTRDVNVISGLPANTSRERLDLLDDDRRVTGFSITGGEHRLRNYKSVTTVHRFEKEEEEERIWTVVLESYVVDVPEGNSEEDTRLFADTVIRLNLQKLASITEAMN; partner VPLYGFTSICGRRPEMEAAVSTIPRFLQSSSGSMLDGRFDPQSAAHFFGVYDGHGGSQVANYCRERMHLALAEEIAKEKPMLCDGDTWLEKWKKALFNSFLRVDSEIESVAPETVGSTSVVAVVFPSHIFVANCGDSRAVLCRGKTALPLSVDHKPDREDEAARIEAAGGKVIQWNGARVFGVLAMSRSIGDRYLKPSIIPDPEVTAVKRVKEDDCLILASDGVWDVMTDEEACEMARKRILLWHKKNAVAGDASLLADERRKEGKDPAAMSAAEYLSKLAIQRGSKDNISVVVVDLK
Variant,relative binding score [%]
R98C,-1.23
P50A,-7.28
W134D,19.1
E129I,3.25
E4S,3.06
G81L,8.37
E131K,63.4
D65R,1.67
V43L,16.8
L8C,4.71
I162L,0.29
